Results from different studies.
Target: Histone deacetylase 4 (HDAC4, Homo sapiens, UniProt P56524)
UniProt P56524, sequence (whole entry, looked up): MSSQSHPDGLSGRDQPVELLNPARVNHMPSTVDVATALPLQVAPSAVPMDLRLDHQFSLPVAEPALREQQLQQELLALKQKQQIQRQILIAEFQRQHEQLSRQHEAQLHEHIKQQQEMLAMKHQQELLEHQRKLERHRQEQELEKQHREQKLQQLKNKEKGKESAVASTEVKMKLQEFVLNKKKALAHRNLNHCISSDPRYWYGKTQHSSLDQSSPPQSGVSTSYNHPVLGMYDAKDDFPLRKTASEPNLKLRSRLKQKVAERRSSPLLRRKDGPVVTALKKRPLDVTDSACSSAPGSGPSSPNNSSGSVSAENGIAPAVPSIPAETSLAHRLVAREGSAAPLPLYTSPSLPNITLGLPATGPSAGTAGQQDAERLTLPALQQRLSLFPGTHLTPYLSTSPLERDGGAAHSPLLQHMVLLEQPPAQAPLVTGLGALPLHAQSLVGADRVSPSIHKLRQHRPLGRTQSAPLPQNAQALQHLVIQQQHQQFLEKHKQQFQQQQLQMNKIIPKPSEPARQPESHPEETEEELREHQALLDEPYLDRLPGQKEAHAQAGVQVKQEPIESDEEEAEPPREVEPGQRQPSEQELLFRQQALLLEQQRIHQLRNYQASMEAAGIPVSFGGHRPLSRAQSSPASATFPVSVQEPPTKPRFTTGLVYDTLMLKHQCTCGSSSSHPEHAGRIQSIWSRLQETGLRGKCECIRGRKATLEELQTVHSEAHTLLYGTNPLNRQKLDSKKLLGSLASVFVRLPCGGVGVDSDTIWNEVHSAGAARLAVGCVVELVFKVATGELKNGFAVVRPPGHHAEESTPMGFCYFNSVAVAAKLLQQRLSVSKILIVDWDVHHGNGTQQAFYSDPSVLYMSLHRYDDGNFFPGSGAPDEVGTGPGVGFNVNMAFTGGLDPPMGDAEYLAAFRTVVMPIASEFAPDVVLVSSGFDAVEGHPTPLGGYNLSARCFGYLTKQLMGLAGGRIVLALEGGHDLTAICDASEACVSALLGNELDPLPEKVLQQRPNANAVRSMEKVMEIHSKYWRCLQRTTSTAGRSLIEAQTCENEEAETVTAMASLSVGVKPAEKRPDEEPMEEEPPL
Action: inhibitor

observed	technique	IC50 [µM]	SMILES
enzyme activity	–	> 10	O=c1c2ccccc2[s+]([O-])n1-c1ccccc1 (stereo not shown)
enzyme activity	–	4.47	N/C(=N\O)c1ccc2c(c1)N(Cc1ccc(C(=O)NO)cc1)c1ccccc1O2
enzyme activity	–	> 10	COC(=O)c1ccc(Cn2sc3ccccc3c2=O)cc1
enzyme activity	fluorescence	1.5	CN1CCN(C(=O)N(CCCCCCC(=O)NO)c2ccc(-c3ccc4cnn(C)c4c3)cc2)CC1
deacetylase activity	recombinant enzyme	> 30	Cn1cc2c(n1)CN(C(=O)Nc1nc(-c3ccc(F)cc3)ccc1N)C2
enzyme activity	–	> 10	O=c1c2ccccc2sn1Cc1ccccc1
deacetylase activity	recombinant enzyme	> 30	Cc1ncc2c(n1)CN(C(=O)Nc1nc(-c3cccs3)ccc1N)C2
enzyme activity	–	0.87	N/C(=N\O)c1ccc2c(c1)Oc1ccccc1N2Cc1ccc(C(=O)NO)cc1
enzyme activity	–	> 50	O=C(CCCCCCNC(=O)c1cc(C(=O)c2ccccc2)cn1Cc1ccc(F)cc1)NO
deacetylase activity	recombinant enzyme	> 30	COCCn1cc2c(n1)CN(C(=O)Nc1nc(-c3ccc(F)cc3F)ccc1N)C2

Excerpt of the above:
observed	technique	IC50 [µM]	SMILES
deacetylase activity	recombinant enzyme	> 30	COCCn1cc2c(n1)CN(C(=O)Nc1nc(-c3ccc(F)cc3F)ccc1N)C2
